# Measured values from different studies.
# Numbered parts are unrelated; each lists some results of a single study.
# Sequence of UniProt Q96RR4 (whole entry, looked up): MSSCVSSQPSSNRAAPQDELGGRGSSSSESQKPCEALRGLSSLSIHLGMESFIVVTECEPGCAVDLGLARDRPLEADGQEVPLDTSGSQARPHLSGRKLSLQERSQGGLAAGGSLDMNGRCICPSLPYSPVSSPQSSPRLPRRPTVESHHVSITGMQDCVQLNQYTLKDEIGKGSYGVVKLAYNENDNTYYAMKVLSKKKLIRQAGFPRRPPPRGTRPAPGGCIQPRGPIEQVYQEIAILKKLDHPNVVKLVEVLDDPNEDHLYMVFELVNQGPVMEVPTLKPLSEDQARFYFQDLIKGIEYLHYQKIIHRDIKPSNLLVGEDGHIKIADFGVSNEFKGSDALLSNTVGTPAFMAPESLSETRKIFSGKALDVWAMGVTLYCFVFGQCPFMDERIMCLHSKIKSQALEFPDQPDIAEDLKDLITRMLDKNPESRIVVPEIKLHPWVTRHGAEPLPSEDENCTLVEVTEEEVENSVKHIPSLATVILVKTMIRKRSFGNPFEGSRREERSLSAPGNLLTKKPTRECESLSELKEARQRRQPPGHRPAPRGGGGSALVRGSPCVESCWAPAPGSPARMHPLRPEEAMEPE
# Sequence of UniProt P35916 (whole entry, looked up): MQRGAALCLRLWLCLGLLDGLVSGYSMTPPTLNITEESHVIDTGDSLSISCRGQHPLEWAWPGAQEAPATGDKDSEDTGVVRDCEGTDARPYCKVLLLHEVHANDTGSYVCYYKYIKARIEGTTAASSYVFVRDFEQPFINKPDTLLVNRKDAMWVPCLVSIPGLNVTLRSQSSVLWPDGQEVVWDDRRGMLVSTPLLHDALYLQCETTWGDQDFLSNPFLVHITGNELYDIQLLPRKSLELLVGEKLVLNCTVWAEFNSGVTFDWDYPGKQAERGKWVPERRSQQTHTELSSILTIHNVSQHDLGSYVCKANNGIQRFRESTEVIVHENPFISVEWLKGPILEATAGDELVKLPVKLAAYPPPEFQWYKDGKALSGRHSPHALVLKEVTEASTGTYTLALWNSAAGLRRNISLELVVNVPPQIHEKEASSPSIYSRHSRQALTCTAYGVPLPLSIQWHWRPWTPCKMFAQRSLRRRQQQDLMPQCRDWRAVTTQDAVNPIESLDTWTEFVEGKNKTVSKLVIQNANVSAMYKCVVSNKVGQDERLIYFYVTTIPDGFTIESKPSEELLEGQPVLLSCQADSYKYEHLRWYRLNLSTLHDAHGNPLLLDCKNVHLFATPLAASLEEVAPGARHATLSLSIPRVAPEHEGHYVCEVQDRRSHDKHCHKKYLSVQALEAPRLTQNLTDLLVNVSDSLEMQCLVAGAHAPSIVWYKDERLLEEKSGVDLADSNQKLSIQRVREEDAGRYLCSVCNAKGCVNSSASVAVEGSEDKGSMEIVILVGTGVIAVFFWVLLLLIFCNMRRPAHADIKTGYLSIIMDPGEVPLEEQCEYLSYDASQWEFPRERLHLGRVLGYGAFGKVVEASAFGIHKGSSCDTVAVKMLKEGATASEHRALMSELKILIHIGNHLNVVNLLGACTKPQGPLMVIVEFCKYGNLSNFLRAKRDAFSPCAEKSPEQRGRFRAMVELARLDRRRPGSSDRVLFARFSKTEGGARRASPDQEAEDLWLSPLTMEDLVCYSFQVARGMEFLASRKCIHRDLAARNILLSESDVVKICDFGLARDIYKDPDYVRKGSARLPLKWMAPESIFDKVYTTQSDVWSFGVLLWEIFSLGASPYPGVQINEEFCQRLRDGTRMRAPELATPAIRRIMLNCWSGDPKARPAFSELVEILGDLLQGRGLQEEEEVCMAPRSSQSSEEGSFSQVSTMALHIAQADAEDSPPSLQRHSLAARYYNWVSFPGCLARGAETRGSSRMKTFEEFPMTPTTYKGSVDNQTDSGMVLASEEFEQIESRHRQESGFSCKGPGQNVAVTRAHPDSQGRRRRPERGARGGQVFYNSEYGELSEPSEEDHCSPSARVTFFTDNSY
# Sequence of UniProt Q13131 (whole entry, looked up): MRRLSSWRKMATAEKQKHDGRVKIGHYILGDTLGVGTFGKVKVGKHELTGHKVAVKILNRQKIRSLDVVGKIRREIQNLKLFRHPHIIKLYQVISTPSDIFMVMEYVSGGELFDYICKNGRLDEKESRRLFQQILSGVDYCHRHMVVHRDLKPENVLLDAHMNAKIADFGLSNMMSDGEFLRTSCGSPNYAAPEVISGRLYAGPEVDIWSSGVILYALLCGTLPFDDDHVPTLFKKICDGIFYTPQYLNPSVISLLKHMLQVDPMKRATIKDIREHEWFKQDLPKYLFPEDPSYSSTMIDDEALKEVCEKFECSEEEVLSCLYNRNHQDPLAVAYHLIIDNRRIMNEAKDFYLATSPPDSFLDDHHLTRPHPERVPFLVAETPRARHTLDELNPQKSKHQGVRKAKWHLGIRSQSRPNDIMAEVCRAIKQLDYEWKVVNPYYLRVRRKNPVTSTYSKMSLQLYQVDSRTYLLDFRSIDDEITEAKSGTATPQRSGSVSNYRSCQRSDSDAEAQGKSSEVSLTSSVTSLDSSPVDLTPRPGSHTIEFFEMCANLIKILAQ
# Sequence of UniProt Q99683 (whole entry, looked up): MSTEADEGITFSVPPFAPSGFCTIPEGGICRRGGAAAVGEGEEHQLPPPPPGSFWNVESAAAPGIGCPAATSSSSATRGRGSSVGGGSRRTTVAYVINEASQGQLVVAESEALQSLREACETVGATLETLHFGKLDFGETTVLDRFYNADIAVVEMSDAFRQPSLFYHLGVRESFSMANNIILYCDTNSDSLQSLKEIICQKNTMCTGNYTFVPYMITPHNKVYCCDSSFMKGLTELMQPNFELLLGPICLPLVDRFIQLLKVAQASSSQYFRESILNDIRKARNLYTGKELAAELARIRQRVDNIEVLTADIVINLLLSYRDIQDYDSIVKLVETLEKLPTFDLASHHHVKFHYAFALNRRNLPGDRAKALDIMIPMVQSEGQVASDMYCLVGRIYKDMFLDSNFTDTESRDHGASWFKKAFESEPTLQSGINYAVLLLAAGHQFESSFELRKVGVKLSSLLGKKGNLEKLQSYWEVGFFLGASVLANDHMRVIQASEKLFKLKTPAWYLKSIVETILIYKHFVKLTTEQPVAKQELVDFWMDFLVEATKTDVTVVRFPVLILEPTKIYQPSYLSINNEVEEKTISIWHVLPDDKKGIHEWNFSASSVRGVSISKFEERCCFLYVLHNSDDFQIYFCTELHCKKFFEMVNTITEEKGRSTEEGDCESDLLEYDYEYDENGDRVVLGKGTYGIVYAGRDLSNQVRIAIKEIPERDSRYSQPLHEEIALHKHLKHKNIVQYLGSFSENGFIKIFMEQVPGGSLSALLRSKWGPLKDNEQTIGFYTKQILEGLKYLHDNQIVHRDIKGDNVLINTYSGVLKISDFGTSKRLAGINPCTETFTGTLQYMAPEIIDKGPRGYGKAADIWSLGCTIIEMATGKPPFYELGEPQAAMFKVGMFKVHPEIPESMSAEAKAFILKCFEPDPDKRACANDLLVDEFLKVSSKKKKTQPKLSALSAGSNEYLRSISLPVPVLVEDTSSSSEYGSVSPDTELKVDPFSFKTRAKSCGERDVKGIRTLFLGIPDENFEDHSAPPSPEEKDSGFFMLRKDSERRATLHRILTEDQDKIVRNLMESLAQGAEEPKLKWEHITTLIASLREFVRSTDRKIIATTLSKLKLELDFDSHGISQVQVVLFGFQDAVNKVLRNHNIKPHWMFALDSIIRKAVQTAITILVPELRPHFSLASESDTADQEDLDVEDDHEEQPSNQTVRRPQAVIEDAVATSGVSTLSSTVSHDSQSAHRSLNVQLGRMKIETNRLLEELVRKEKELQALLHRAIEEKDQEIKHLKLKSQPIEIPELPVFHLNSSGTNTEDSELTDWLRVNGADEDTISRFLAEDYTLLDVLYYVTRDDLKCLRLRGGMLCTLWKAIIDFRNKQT
# Sequence of UniProt P30291 (whole entry, looked up): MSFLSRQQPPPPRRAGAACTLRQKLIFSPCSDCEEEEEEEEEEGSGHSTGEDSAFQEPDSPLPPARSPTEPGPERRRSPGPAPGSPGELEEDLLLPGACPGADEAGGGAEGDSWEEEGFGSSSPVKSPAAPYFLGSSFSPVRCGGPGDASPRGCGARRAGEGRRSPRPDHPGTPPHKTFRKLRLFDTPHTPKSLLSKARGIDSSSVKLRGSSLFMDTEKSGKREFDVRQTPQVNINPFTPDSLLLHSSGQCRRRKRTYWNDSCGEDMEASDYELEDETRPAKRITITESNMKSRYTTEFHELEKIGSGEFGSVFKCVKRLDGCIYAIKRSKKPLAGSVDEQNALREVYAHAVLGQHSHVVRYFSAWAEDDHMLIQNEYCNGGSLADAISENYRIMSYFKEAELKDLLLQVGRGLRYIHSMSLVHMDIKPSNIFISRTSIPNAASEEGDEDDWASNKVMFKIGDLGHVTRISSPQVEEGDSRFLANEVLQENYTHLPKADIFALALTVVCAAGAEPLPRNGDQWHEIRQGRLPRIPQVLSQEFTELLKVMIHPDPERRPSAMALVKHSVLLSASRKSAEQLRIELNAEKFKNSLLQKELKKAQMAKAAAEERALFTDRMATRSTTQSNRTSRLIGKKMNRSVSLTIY

# Set 1
# Organism: Sarcocystis neurona
# Observed: parasite growth
# Concentration: 10 µM
# Time: 96 h
# Setting: first screen
# Relative to: untreated
SMILES,log2 fold change
OCCN(CCO)c1nc(N2CCCCC2)c2nc(N(CCO)CCO)nc(N3CCCCC3)c2n1,0.06
CCCOc1ccc(C(=O)OCCN(CC)CC)cc1N,0.35
NC(=O)N1c2ccccc2C=Cc2ccccc21,0.21
C=CCc1ccc(O)c(-c2ccc(O)c(CC=C)c2)c1,-0.1
CCCCc1oc2ccccc2c1C(=O)c1cc(I)c(OCCN(CC)CC)c(I)c1,-0.34
CC[C@@]1(O)C(=O)OCc2c1cc1n(c2=O)Cc2cc3c(CN(C)C)c(O)ccc3nc2-1,0.16

# Set 2
# Cell line: mouse MPNST tumor cells
# Technique: high-content nuclear imaging
# Item: cell number
# Concentration: 10 µM
# Time: 12 h
# Setting: mean of 2 replicates
# Relative to: plate mean
# Direction: higher = more cells
SMILES,nuclei count
Cc1cc(OCC(=O)O)cc(C)c1Cc1ccc(O)c(C(C)C)c1,1.35 z-score
C[C@H](CCC(=O)O)[C@H]1CC[C@H]2[C@@H]3[C@H](O)C[C@@H]4C[C@H](O)CC[C@]4(C)[C@H]3CC[C@]12C,0.668 z-score
COc1cccc2c1C(=O)c1c(O)c3c(c(O)c1C2=O)C[C@@](O)(C(=O)CO)C[C@@H]3O[C@H]1C[C@H](N)[C@@H](O)[C@H](C)O1,-4.41 z-score
N=C1NC(=O)/C(=C/c2ccc(O)cc2)S1,2.35 z-score
O=C(COCC(=O)N1CCN(C(c2ccccc2)c2ccccc2)CC1)Nc1ccc(Cl)cc1C(=O)O,1.93 z-score

# Set 3
# Target: Calcium/calmodulin-dependent protein kinase type 1 (CAMK1, Homo sapiens, UniProt Q14012)
# Sequence of UniProt Q14012 (whole entry, looked up): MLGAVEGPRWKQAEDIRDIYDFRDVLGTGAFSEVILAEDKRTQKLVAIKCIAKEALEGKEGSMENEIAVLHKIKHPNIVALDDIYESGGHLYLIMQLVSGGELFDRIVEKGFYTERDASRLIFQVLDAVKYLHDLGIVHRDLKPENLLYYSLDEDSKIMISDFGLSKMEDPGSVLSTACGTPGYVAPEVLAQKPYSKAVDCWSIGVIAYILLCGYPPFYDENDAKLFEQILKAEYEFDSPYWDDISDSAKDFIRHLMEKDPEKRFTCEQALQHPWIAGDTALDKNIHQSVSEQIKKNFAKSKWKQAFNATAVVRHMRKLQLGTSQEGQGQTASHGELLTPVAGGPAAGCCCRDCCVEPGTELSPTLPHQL
# Observed: enzyme activity
# Mode: inhibitor
# Concentration: 0.5 µM
# Relative to: control
Compound,remaining activity [%]
NCCNc1ncc(C(N)=O)c(Nc2cccc(C(F)(F)F)c2)n1,60.9
Cc1ccc(Nc2nccc(N(C)c3ccc4c(C)n(C)nc4c3)n2)cc1S(N)(=O)=O,87.4
C#Cc1cccc(Nc2ncnc3cc(OCCOC)c(OCCOC)cc23)c1,98.9
Cn1c2ccccc2c2c3c(c4c5ccccc5n(CCC#N)c4c21)CNC3=O,94.2
CCOC(=O)c1c(C)[nH]c(/C=C2\C(=O)Nc3ccccc32)c1C,98.1
Nc1[nH]nc2nc3ccccc3nc12,94.4
N#CC(C#N)=C(N)/C(C#N)=C/c1ccc(O)cc1,97.2
COc1ccc(OC)c2c(=S)c3ccccc3[nH]c12,75.2
CNC(=O)c1cc(Oc2ccc(NC(=O)Nc3ccc(Cl)c(C(F)(F)F)c3)cc2)ccn1,106
O=S(=O)(c1cccc2cnccc12)N1CCCNCC1,99.4
O=C1NC(=O)C(c2cn(CCCn3ccnc3)c3ccccc23)=C1Nc1ccccc1,106
COc1ccc(CNC(=O)Nc2ncc([N+](=O)[O-])s2)cc1,101
O=C1NC(=O)C(c2cn(CCCO)c3ncccc23)=C1c1cnccn1,101
Cc1cccc(-c2[nH]c(C(C)(C)C)nc2-c2ccc3c(c2)OCO3)n1,99.8
CN(C)c1ccc(C=C2C(=O)Nc3ccccc32)cc1,104

# Set 4
# Structure (SMILES): COc1ccc2c(c1)O[C@@H](c1ccc(OC)c(OC)c1)C[C@H]2NC(=O)C1(c2ccc3c(c2)OC(F)(F)O3)CC1
# Observed: cell-free assay
# Technique: competition with immobilised ligand
# Concentration: 1 µM
target,remaining binding [%]
"Calcium/calmodulin-dependent protein kinase kinase 2 (CAMKK2, Homo sapiens, UniProt Q96RR4)",96
"5'-AMP-activated protein kinase catalytic subunit alpha-1 (PRKAA1, Homo sapiens, UniProt Q13131)",80
"Wee1-like protein kinase (WEE1, Homo sapiens, UniProt P30291)",99
"Epidermal growth factor receptor (EGFR, Homo sapiens, UniProt P00533, del752-759)",100
"Mitogen-activated protein kinase kinase kinase 5 (MAP3K5, Homo sapiens, UniProt Q99683)",94
"Vascular endothelial growth factor receptor 3 (FLT4, Homo sapiens, UniProt P35916)",91
